# Measurements gathered from unrelated publications.
# Every numbered part comes from another study and shows a few of its results, in no order.

# Series 1 — method: competition protein-binding microarray; form: double-stranded DNA, one strand shown; matrix: in vitro; concentration: 2 µM; added: Cbf1 competitor, 0.05 µM; direction: higher = stronger binding; constant ends, left off below: … GTCTTGATTCGCTTGACGCTGCTG
# Target: Phosphate system positive regulatory protein PHO4, full length, GST-tagged (PHO4, Saccharomyces cerevisiae, UniProt P07270, residues 1-312)
# Setting: whole 60-bp probe, lowest competitor level
# Target sequence (chain): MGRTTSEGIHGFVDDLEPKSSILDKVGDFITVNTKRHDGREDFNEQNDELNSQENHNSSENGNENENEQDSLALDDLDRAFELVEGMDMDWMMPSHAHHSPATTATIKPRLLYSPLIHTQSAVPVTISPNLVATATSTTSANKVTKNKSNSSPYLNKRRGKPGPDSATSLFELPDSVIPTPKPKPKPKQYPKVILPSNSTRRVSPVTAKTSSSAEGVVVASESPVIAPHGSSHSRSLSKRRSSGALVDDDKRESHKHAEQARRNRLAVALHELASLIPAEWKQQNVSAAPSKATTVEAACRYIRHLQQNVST
Strand,fluorescence intensity [a.u.]
TGCGGCCATAAGCGTCACAGGCCACTCACTGGGAGG,3380
TATTTTGGAGTTAGGGTTGTGATGCTTGACGATAAC,4460
GAATTACTCATTTGTTTCGTGCGATTTCCTATTGCG,5020
CTTTCCCGATCTTGCTCAGTGGGTGTAGCACATTTG,4460
GTTATTGGGCTAGGACACGTATGCGAACTACAACCT,6310
CCAACACCGTCTTCACCCGTGCAAATGCCTTCTGCG,6770
CGTCCTAGCGATTGAAGGGTGGGTGCCATGAGGAAG,6990
AAATTACTAAGTTGGTGAGTGGGTGACGCCGTATGA,4470

# Series 2 — method: protein binding microarray; form: double-stranded DNA, one strand shown; matrix: in vitro; concentration: not given; baseline: not given; direction: higher = stronger binding
# Target: Histone acetyltransferase KAT6A, winged helix 1, GST fusion (KAT6A, Homo sapiens, UniProt Q92794, residues 1-85)
# Setting: 8-mer, flanks averaged, mean of 2 arrays, mostly near background
# Target sequence (chain): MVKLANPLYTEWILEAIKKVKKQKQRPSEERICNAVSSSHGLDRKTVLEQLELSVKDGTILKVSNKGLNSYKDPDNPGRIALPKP
Strand,E-score
ATTAATGG,-0.0748
ACAACGAC,0.0414
ATTTTTAA,-0.125
TGTTGCAA,-0.182
GGACCAGA,-0.155
TAGGCCCA,-0.137
CATAGTCA,-0.181
CGGCTATC,0.352

# Series 3 — method: protein-binding microarray; form: hairpin DNA; matrix: in vitro; concentration: not given; baseline: not given; direction: higher = stronger binding; constant ends, left off below: GAGGCCG … CGGCCTCACACTC
# Target: Cyclic AMP-dependent transcription factor ATF-1, full length (ATF1, Homo sapiens, UniProt P18846, residues 1-271)
# Setting: whole hairpin DNA, median over replicate spots
# Target sequence (chain): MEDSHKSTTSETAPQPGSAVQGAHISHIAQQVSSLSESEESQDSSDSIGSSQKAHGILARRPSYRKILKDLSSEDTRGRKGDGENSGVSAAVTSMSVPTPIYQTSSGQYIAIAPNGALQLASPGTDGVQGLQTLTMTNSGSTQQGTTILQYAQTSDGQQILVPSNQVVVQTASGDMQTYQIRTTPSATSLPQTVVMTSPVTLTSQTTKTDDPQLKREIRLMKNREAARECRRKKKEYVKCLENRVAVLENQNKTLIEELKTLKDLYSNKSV
Strand,median fluorescence [a.u.]
ACGACGTCGTGCCTCCTGGCACGACGTCGT (5mC at 9 15 29),6140
GCGGACGTCAGCCTCCTGGCTGACGTCCGC (5mC at 9 35),4830
GCGGACGTCAGCCTCCTGGCTGACGTCCGC (5mC at 9),5210
ACGACGTCGTGCCTCCTGGCACGACGTCGT (5mC at 9 15 29 32 35),3360
ACGACGTCGTGCCTCCTGGCACGACGTCGT (5mC at 9 12 15 29 32 35),3280
GCTGACGGCAGCCTCCTGGCTGCCGTCAGC,3860
ACGACGTCGTGCCTCCTGGCACGACGTCGT (5mC at 15 29 35),3710
ACGACGTCGTGCCTCCTGGCACGACGTCGT (5mC at 9 35),3970

# Series 4 — observed: enzyme activity; action: inhibitor; concentration: 20 µM
# Target: Replicase polyprotein 1ab, polymerase (rep, Severe acute respiratory syndrome coronavirus 2, UniProt P0DTD1)
Compound,inhibition [%]
CNC(=O)CN1CCC(Oc2cc3c(Nc4cccc(Cl)c4F)ncnc3cc2OC)CC1,-1.74
CCCCCCCCCCCC(=O)N(CCO)CCO,-1.21
Oc1c(Cl)cc(Cl)c2cccnc12,-0.73
CCCCCCCCCCCCCCCC(=O)C(F)(F)F,2.14
CCCCOc1nc(N)c2c(n1)N(Cc1cccc(CN3CCCC3)c1)CC(=O)N2,-2.7
Cc1ccc(S(=O)(=O)NC2c3ccccc3Oc3ccccc32)cc1,-4.19
C=CC(=O)Nc1cc2c(Nc3ccc(F)c(Cl)c3)ncnc2cc1C#CC(C)(C)N1CCN(C)CC1,-2.69
N=C1N[C@H]2[C@H](CS[C@H]2CCCCC(=O)O)N1,4.75
COC(=O)c1cc(OC)c2c(c1-c1c(CO)cc(OC)c3c1OCO3)OCO2,-0.46
CN(Cc1ccccc1)C(=O)[C@H](Cc1ccc2ccccc2c1)NC(=O)[C@@H]1C[C@@H](O)CN1C(=O)c1cn(C)c2ccccc12,-3.81
CC(C1=C(CCN(C)C)Cc2ccccc21)c1ccccn1 (stereo not shown),-4.01
COc1cc(F)c(F)c(Nc2ccc(I)cc2F)c1NS(=O)(=O)C1(C[C@H](O)CO)CC1,-1.93
O=C(O)/C=C(/CC(=O)O)C(=O)O,3.47
Cc1cc2c(cc1CC(=O)c1sccc1S(=O)(=O)Nc1onc(C)c1Cl)OCO2,-2.65
Cn1cc(C2=C(c3cn(C4CCN(Cc5ccccn5)CC4)c4ccccc34)C(=O)NC2=O)c2ccccc21,-8.92
CCCOc1ccc(C(=O)OCCN(CC)CC)cc1N,1.86
CCn1cc(C(=O)O)c(=O)c2cc(F)c(N3CCNCC3)nc21,-0.05
O=C(O)CN(CCN(CC(=O)O)CC(=O)O)CCN(CC(=O)O)CC(=O)O,-3.71
Cc1ccc(S(=O)(=O)OCC(=O)Nc2ccc(C(=O)O)c(O)c2)cc1,5.58
O=C(O)CNC(=O)c1c(O)c2ccccc2n(Cc2ccccc2)c1=O,2.87
CCOC(=O)Nc1ccc2c(c1)N(C(=O)CN(CC)CC)c1ccccc1CC2,1.11
C=CCc1ccc(O)c(-c2ccc(O)c(CC=C)c2)c1,2.24
OCc1ccccc1O,-0.97
CC(C)C(=O)SCCCCC[C@H](NC(=O)OC(C)(C)C)C(=O)NC12CC3CC(CC(C3)C1)C2,-5.52
C=C1C(=O)O[C@@H]2[C@H]3O[C@]3(C)CC/C=C(\C)CC[C@@H]12,-0.66

# Series 5 — cell line: HEK-293T/ACE2; concentration: 10 µM; time: 16 h; baseline: vehicle
Structure (SMILES),viability
C[C@]12CC[C@H]3[C@@H](CC[C@@]45O[C@@H]4C(O)=C(C#N)C[C@]35C)[C@@H]1CC[C@@H]2O,100%
CCOC(=O)[C@H](CCc1ccccc1)N[C@@H](C)C(=O)N1Cc2ccccc2C[C@H]1C(=O)O,99.4%
NC(=O)N1c2ccccc2C=Cc2ccccc21,101%

# Series 6 — observed: enzyme activity; action: inhibitor; concentration: 20 µM; setting: hit confirmation, with DTT
# Target: Replicase polyprotein 1ab, main protease (rep, Severe acute respiratory syndrome coronavirus 2, UniProt P0DTD1)
Structure (SMILES),inhibition [%]
CN(C)C(=S)SSC(=S)N(C)C,12.7
C=CC(=O)c1ccc2ccccc2c1,-11.8
C/N=c1/nc(-c2ccccc2)n(-c2ccccc2)s1,-11.6

# Some of these lines once more (series 5):
Structure (SMILES),viability
C[C@]12CC[C@H]3[C@@H](CC[C@@]45O[C@@H]4C(O)=C(C#N)C[C@]35C)[C@@H]1CC[C@@H]2O,100%
CCOC(=O)[C@H](CCc1ccccc1)N[C@@H](C)C(=O)N1Cc2ccccc2C[C@H]1C(=O)O,99.4%
NC(=O)N1c2ccccc2C=Cc2ccccc21,101%
